Assay results pooled from the literature.
A part holds a random share of what one study measured.
UniProt Q14680, sequence (whole entry, looked up): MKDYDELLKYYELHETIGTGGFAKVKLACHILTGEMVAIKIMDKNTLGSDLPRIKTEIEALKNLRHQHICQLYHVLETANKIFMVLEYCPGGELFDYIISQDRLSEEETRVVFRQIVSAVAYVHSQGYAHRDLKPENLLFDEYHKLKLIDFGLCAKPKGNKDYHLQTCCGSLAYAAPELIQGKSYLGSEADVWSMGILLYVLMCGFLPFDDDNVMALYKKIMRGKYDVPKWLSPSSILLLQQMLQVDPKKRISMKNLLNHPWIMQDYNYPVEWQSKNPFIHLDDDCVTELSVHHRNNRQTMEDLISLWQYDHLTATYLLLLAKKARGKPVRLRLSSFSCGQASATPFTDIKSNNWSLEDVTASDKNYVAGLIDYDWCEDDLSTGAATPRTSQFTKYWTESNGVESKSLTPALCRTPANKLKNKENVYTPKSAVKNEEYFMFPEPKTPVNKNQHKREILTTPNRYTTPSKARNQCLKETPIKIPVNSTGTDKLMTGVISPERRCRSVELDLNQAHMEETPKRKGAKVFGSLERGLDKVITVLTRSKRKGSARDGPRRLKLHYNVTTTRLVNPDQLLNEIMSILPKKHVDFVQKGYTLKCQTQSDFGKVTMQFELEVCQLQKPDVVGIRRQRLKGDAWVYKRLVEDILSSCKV
UniProt Q99755, sequence (whole entry, looked up): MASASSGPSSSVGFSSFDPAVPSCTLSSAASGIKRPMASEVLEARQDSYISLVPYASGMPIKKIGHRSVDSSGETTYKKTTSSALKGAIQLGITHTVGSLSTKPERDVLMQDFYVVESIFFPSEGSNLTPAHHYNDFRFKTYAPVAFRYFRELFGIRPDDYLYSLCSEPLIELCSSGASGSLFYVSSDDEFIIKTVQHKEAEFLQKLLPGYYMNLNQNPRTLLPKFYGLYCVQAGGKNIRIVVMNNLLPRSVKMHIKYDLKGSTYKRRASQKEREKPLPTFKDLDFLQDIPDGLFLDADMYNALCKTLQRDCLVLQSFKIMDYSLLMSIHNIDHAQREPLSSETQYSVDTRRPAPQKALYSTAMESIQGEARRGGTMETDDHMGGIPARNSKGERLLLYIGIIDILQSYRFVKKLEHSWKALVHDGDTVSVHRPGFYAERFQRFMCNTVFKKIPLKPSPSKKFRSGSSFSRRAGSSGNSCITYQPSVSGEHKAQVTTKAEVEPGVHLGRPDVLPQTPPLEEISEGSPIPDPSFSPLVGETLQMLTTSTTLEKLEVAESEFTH
UniProt O00444, sequence (whole entry, looked up): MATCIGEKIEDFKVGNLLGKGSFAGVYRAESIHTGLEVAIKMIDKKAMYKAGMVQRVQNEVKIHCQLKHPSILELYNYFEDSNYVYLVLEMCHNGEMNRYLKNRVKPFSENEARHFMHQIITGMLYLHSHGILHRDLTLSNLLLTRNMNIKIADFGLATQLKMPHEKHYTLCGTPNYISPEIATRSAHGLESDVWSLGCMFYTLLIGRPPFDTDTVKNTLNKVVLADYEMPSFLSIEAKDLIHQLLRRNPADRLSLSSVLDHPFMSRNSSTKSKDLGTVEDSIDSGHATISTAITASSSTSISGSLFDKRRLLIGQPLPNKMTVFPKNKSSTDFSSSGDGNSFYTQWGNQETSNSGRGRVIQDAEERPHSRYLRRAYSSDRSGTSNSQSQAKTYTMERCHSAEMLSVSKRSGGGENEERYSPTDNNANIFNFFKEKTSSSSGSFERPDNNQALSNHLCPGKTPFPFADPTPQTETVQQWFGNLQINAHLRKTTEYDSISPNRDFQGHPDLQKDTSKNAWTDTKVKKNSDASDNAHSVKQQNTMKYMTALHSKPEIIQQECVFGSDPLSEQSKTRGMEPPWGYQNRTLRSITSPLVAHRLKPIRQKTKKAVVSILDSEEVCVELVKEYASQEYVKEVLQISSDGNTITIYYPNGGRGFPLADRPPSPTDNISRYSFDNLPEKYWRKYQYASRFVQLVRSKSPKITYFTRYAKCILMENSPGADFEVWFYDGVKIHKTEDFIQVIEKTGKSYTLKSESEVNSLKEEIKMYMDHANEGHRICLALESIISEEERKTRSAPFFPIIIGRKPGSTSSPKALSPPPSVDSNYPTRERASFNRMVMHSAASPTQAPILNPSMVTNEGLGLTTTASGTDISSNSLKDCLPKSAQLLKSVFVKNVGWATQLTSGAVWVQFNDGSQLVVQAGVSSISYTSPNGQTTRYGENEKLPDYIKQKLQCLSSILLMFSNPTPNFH
UniProt O95835, sequence (whole entry, looked up): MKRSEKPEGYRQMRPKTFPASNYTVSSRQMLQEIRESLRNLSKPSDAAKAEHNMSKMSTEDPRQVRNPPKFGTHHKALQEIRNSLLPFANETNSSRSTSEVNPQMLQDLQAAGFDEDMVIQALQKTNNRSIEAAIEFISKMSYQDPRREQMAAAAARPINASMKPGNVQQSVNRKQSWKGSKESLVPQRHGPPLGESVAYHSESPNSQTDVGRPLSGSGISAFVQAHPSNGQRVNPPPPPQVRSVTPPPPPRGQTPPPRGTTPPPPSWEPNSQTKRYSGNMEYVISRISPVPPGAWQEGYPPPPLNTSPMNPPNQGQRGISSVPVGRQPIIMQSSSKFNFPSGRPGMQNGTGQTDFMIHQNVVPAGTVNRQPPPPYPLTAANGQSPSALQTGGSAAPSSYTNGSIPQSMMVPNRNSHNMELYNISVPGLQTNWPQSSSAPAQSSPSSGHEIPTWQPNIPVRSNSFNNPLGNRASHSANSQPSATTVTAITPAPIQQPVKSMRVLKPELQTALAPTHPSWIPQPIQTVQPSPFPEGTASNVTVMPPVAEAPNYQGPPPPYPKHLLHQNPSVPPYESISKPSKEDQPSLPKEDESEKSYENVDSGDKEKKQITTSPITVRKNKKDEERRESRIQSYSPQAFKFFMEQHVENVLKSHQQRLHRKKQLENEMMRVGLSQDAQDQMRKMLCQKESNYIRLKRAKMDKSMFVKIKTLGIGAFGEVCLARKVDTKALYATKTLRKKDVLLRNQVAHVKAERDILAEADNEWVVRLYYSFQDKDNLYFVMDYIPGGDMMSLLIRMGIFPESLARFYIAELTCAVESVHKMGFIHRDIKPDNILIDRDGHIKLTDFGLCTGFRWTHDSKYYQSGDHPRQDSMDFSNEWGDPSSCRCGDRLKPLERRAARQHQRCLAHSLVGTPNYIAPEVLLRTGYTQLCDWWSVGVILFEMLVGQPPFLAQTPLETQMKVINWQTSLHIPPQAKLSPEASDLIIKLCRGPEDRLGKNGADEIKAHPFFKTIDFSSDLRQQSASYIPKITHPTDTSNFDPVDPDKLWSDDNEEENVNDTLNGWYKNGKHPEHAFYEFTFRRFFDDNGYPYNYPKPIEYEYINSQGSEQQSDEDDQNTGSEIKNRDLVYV

Series 1 — technique: competition with immobilised ligand; tested at: 1 µM; endpoint: remaining binding
SMILES: O=C(N[C@H]1CCCCC/C=C\C2C[C@@]2(C(=O)O)NC(=O)[C@@H]2C[C@@H](Oc3ccncc3)CN2C1=O)OC1CCCC1 (stereo partly drawn)
SYK (Homo sapiens, UniProt P43405); cell-free assay: 100%
PIP5K1A (Homo sapiens, UniProt Q99755); cell-free assay: 99%
MELK (Homo sapiens, UniProt Q14680); binding: 84%
PLK4 (Homo sapiens, UniProt O00444); binding: 88%
LATS1 (Homo sapiens, UniProt O95835); binding: 99%

Series 2 — technique: RNA Bind-n-Seq; molecule type: RNA; medium: in vitro; tested at: 20 nM; notes: 6-mer, flanks averaged, single round; together with: 150 mM LiCl; reference: input library; direction: higher = stronger binding; endpoint: 6-mer enrichment (R)
Target: TAR DNA-binding protein 43, full length, His tag (TARDBP, Homo sapiens, UniProt Q13148, residues 1-414)
CAUCAA: 0.819
CCGCUG: 0.935
UUGUAG: 1.11
UUAACG: 0.865
AGGGUG: 1.37
CCCGGG: 1.04
GGCAAG: 1.03
GAAAGA: 0.889

Series 3 — effect on: enzyme activity; mode: inhibitor; tested at: 0.5 µM; reference: control; endpoint: remaining activity
Target: Macrophage colony-stimulating factor 1 receptor (CSF1R, Homo sapiens, UniProt P07333)
UniProt P07333, sequence (whole entry, looked up): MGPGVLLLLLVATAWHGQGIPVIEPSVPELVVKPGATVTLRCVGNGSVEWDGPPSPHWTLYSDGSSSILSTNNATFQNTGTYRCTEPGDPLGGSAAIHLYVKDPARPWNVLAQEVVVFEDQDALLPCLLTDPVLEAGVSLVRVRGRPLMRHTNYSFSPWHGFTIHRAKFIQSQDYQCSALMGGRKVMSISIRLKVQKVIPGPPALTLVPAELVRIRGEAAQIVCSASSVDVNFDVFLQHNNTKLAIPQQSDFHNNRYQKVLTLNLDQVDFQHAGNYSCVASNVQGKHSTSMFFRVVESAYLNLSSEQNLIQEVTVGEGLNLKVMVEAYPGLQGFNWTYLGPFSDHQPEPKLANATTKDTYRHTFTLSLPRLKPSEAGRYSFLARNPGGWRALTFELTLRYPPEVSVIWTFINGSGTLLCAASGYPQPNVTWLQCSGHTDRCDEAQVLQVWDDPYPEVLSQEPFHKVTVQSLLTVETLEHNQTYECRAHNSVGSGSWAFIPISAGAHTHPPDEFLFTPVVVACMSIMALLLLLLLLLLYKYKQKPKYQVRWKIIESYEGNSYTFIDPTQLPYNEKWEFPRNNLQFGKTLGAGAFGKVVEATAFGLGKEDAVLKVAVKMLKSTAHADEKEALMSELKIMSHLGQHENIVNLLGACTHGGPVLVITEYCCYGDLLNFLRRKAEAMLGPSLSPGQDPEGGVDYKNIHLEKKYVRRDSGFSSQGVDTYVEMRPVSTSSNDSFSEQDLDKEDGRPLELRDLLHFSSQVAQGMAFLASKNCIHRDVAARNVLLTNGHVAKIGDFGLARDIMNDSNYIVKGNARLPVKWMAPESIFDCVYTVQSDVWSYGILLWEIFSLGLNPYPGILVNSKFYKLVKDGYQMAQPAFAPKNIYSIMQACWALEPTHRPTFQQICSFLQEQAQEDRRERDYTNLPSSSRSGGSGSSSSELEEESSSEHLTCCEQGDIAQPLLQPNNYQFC
COc1ccc(CNC(=O)Nc2ncc([N+](=O)[O-])s2)cc1: 99.2%
Nc1ccc2ncnc(NCCc3ccc(Oc4ccccc4)cc3)c2c1: 106%
O=C(CCCc1ccc(-c2ccccc2F)cc1)Nc1ccc(O)cc1: 104%
CO[C@H]1C[C@@H]2CC[C@@H](C)[C@@](O)(O2)C(=O)C(=O)N2CCCC[C@H]2C(=O)O[C@H]([C@H](C)C[C@@H]2CC[C@@H](O)[C@H](OC)C2)CC(=O)[C@H](C)/C=C(\C)[C@@H](O)[C@@H](OC)C(=O)[C@H](C)C[C@H](C)/C=C/C=C/C=C/1C: 101%
O=C(O)c1ccc2c3c1cccc3c(=O)n1c3ccccc3nc21: 104%
Cc1cccc(-c2[nH]c(C(C)(C)C)nc2-c2ccc3c(c2)OCO3)n1: 102%
NCCNc1ncc(C(N)=O)c(Nc2cccc(C(F)(F)F)c2)n1: 78.6%
Cn1sc(=O)n(Cc2ccccc2)c1=O: 98.6%
Nc1ncnc2n[nH]c(Nc3ccc(F)cc3)c12: 101%
COc1ccc(OC)c2c(=S)c3ccccc3[nH]c12: 93.4%
O=C(Nc1cccc(Nc2cc(Nc3cccc(C(F)(F)F)c3)ncn2)c1)C1CC1: 99.9%
Cc1nc(-c2ccccc2)c(-c2ccncc2)o1: 104%
N#CC(C#N)=C(N)/C(C#N)=C/c1ccc(O)cc1: 98%

Further values, each from its own experiment — technique: cross-linking MS; HNRNPC: HNRNPC (Homo sapiens, UniProt P07910)
BOP1 (Homo sapiens, UniProt Q14137)
cross-linked residues (RPL7L1 (Homo sapiens, UniProt Q6DKI1); cell fractions; together with: DSSO): K391 to K17

SYNCRIP (Homo sapiens, UniProt O60506)
interaction screen (HNRNPC; hits only): cross-linked

GAPDH (Homo sapiens, UniProt P04406)
interaction screen (HNRNPC; hits only): cross-linked

YWHAQ (Homo sapiens, UniProt P27348)
cross-linked residues (YWHAB (Homo sapiens, UniProt P31946); cell fractions; together with: DSSO): K85 to K11
